Assay results collected from several papers.
± marks the error that the study gave.

SMILES | assay | test system | conditions | tissue uptake
N=C(N)NCCC[C@@H]1NC(=O)[C@H](CCCCNC(=O)CC[C@H](NC(=O)CC[C@H](NC(=O)CN2CCN(CC(=O)O)CCN(CC(=O)O)CCN(CC(=O)O)CC2)C(=O)N[C@@H](CCC(=O)NCCCC[C@@H]2NC(=O)[C@@H](Cc3ccccc3)NC(=O)[C@H](CC(=O)O)NC(=O)CNC(=O)[C@H](CCCNC(=N)N)NC2=O)C(=O)NCCCC[C@@H]2NC(=O)[C@@H](Cc3ccccc3)NC(=O)[C@H](CC(=O)O)NC(=O)CNC(=O)[C@H](CCCNC(=N)N)NC2=O)C(=O)NCCCC[C@@H]2NC(=O)[C@@H](Cc3ccccc3)NC(=O)[C@H](CC(=O)O)NC(=O)CNC(=O)[C@H](CCCNC(=N)N)NC2=O)NC(=O)[C@@H](Cc2ccccc2)NC(=O)[C@H](CC(=O)O)NC(=O)CNC1=O [indium-111 labelled] |  | female athymic nu/nu mice, heart | intravenous, 72 h | 1.01 ± 0.76 %ID/g
CC(C)C[C@@H](NC(=O)[C@@H](CC(C)C)NC(=O)[C@@H](CC(=O)O)NC(=O)[C@@H](CC(C)C)NC(=O)[C@@H](CC(C)C)NC(=O)[C@@H](CC(C)C)NC(=O)[C@H](NC(=O)[C@@H](CC(=O)O)NC(=O)[C@H](NC(=O)[C@H]1CCCN1C(=O)[C@@H](Cc1ccccc1)NC(=O)[C@@H](CC(C)C)NC(=O)[C@@H](CC(C)C)NC(=O)[C@@H](CC(=O)O)NC(=O)[C@@H](CC(C)C)NC(=O)[C@@H](Cc1ccc(O)cc1)NC(=O)[C@@H](C)NC(=O)[C@@H](CCCNC(=N)N)NC(=O)[C@@H](Cc1c[nH]c2ccccc12)NC(=O)[C@H]1CCCN1C(=O)[C@@H](CC(N)=O)NC(=O)[C@@H](CCC(N)=O)NC(=O)[C@@H](CC(=O)O)NC(=O)[C@@H](CC(=O)O)NC(=O)[C@@H](CS)NC(=O)[C@@H](C)NC(=S)Nc1ccc(CC2CN(CC(=O)O)CCN(CC(=O)O)CCN2CC(=O)O)cc1)[C@H](C)O)[C@H](C)O)C(=O)N[C@H](Cc1c[nH]c2ccccc12)C(=O)O (stereo partly drawn) [fluorine-18 labelled] |  | BALB/c mice, female, 4T1 orthotopic tumour, small intestine | intravenous, 4 h | 0.927 ± 0.152 %ID/g
N=C(N)NCCC[C@@H]1NC(=O)[C@H](CCCCNC(=O)CNC(=O)CNC(=O)CNC(=O)CC[C@H](NC(=O)CNC(=O)CNC(=O)CNC(=O)CC[C@H](NC(=O)CN2CCN(CC(=O)O)CCN(CC(=O)O)CCN(CC(=O)O)CC2)C(=O)NCC(=O)NCC(=O)NCC(=O)N[C@@H](CCC(=O)NCC(=O)NCC(=O)NCC(=O)NCCCC[C@@H]2NC(=O)[C@@H](Cc3ccccc3)NC(=O)[C@H](CC(=O)O)NC(=O)CNC(=O)[C@H](CCCNC(=N)N)NC2=O)C(=O)NCC(=O)NCC(=O)NCC(=O)NCCCC[C@@H]2NC(=O)[C@@H](Cc3ccccc3)NC(=O)[C@H](CC(=O)O)NC(=O)CNC(=O)[C@H](CCCNC(=N)N)NC2=O)C(=O)NCC(=O)NCC(=O)NCC(=O)NCCCC[C@@H]2NC(=O)[C@@H](Cc3ccccc3)NC(=O)[C@H](CC(=O)O)NC(=O)CNC(=O)[C@H](CCCNC(=N)N)NC2=O)NC(=O)[C@@H](Cc2ccccc2)NC(=O)[C@H](CC(=O)O)NC(=O)CNC1=O [indium-111 labelled] |  | female athymic nu/nu mice, blood | intravenous, 1 h | 0.25 ± 0.04 %ID/g
CC(C)C[C@@H](NC(=O)[C@@H](CCC(=O)O)NC(=O)[C@@H](CC(C)C)NC(=O)[C@@H](CC(C)C)NC(=O)[C@@H](CC(C)C)NC(=O)[C@H](NC(=O)[C@@H](CCC(=O)O)NC(=O)[C@H](NC(=O)[C@H]1CCCN1C(=O)[C@@H](Cc1ccccc1)NC(=O)[C@@H](CC(C)C)NC(=O)[C@@H](Cc1c[nH]c2ccccc12)NC(=O)[C@@H](CCC(=O)O)NC(=O)[C@@H](CC(C)C)NC(=O)[C@@H](Cc1ccc(O)cc1)NC(=O)[C@@H](CCCNC(=N)N)NC(=O)[C@@H](C)NC(=O)[C@@H](Cc1c[nH]c2ccccc12)NC(=O)[C@H]1CCCN1C(=O)[C@@H](CC(N)=O)NC(=O)[C@@H](CCC(N)=O)NC(=O)[C@@H](CCC(=O)O)NC(=O)[C@@H](CCC(=O)O)NC(=O)[C@@H](CS)NC(=O)[C@@H](C)NC(=S)Nc1ccc(CC2CN(CC(=O)O)CCN(CC(=O)O)CCN2CC(=O)O)cc1)[C@H](C)O)[C@H](C)O)C(=O)O (stereo partly drawn) [copper-64 labelled] |  | BALB/c mice, female, 4T1 orthotopic tumour, large intestine | intravenous, 4 h | 7.78 ± 0.61 %ID/g
CCCC[C@H](NC(=O)CNC(=O)CNC(=O)CN1CCN(CC(=O)O)CCN(CC(=O)O)CC1)C(=O)N[C@H]1CC(=O)NCCCC[C@@H](C(N)=O)NC(=O)[C@H](Cc2c[nH]c3ccccc23)NC(=O)[C@H](CCCNC(=N)N)NC(=O)[C@@H](Cc2ccccc2)NC(=O)[C@H](Cc2c[nH]cn2)NC1=O [technetium-99m labelled] |  | C57 mice, whole blood | intravenous, 0.037 MBq, 4 h | 0.11 ± 0.06 %ID/g
CN1C(=O)[C@@H](Cc2ccc(O)cc2)NC(=O)CNC(=O)[C@H](Cc2ccc3ccccc3c2)NC(=O)[C@H](CCCNC(=N)N)NC(=O)[C@H]1CCCNC(=O)c1ccc(CNC(=O)CN2CCN(CC(=O)O)CCN(CC(=O)O)CCN(CC(=O)O)CC2)cc1 [gallium-68 labelled] |  | SCID mice, lymphoma xenograft, kidneys | intravenous, 1 h | 8.8 ± 0.9 %ID/g
CC(C)C[C@H](NC(=O)CN1CCN(CC(=O)O)CCN(CC(=O)O)CC1)C(=O)N[C@@H](CC(C)C)C(=O)N[C@@H](CC(C)C)C(=O)N[C@@H](CC(C)C)C(=O)N[C@@H](CCCNC(=N)N)C(=O)N[C@H](C(=O)N[C@@H](CCCCN)C(=O)N[C@@H](CCCNC(=N)N)C(N)=O)C(C)C [copper-64 labelled] |  | CD1 mice, kidney | intravenous, 15 min | 50 ± 20 %ID/g
N=C(N)NCCC[C@@H]1NC(=O)[C@H](CCCCNC(=O)CN2CCN(CC(=O)O)CCN(CC(=O)O)CCN(CC(=O)O)CC2)NC(=O)[C@@H](Cc2ccc(O)cc2)NC(=O)[C@H](CC(=O)O)NC(=O)CNC1=O [copper-64 labelled] | 64Cu microPET | female nude mice, U-87 MG xenograft, liver | intravenous, 4 h | 3.59 ± 0.87 %ID/g
N=C(N)NCCC[C@@H]1NC(=O)[C@H](CCCCNC(=O)CNC(=O)CNC(=O)CNC(=O)CC[C@H](NC(=O)CNC(=O)CNC(=O)CNC(=O)CN2CCN(CC(=O)O)CCN(CC(=O)O)CCN(CC(=O)O)CC2)C(=O)NCC(=O)NCC(=O)NCC(=O)NCCCC[C@@H]2NC(=O)[C@@H](Cc3ccccc3)NC(=O)[C@H](CC(=O)O)NC(=O)CNC(=O)[C@H](CCCNC(=N)N)NC2=O)NC(=O)[C@@H](Cc2ccccc2)NC(=O)[C@H](CC(=O)O)NC(=O)CNC1=O [indium-111 labelled] |  | female athymic nu/nu mice, blood | intravenous, 72 h | 0.01 %ID/g
CC(C)CC(CC(C)C)NC(=O)[C@H](Cc1cnc[nH]1)NC(=O)CNC(=O)[C@@H](NC(=O)[C@H](C)NC(=O)[C@H](Cc1c[nH]c2ccccc12)NC(=O)[C@H](CCC(N)=O)NC(=O)[C@@H](Cc1ccccc1)NC(=O)COCC(=O)Nc1ccc(CNC(=O)CN2CCN(CC(=O)O)CCN(CC(=O)O)CCN(CC(=O)O)CC2)cc1)C(C)C [lutetium-177 labelled] |  | female NMRI-Foxn1 nu/nu mice, T47D xenograft, tumour | 4 MBq, 24 h, doxorubicin 5 mg/kg weekly for 2 weeks | 6.61 ± 6.08 %ID/g
CSCC[C@H](NC(=O)[C@H](CC(C)C)NC(=O)[C@H](Cc1c[nH]cn1)NC(=O)CNC(=O)[C@@H](NC(=O)[C@H](C)NC(=O)[C@H](Cc1c[nH]c2ccccc12)NC(=O)[C@H](CCC(N)=O)NC(=O)CCOCCOCCOCCOCCNC(=O)CN1CCN(CC(=O)O)CCN(CC(=O)O)CCN(CC(=O)O)CC1)C(C)C)C(N)=O [indium-111 labelled] |  | male Swiss nu/nu mice, PC-3 tumour, kidney | intravenous, 10 pmol, 4 h | 1.5 ± 0.4 %ID/g
CCCC[C@H](NC(=O)COCCOCCNC(=O)CN1CCN(CC(=O)O)CCN(CC(=O)O)CC1)C(=O)N[C@H]1CC(=O)NCCCC[C@@H](C(N)=O)NC(=O)[C@H](Cc2c[nH]c3ccccc23)NC(=O)[C@H](CCCNC(=N)N)NC(=O)[C@@H](Cc2ccccc2)NC(=O)[C@H](Cc2c[nH]cn2)NC1=O [copper-64 labelled] |  | C57 mice, stomach | intravenous, 0.37 MBq, 2 h | 0.99 ± 0.17 %ID/g

For quick reference, copied from above:
SMILES | assay | test system | conditions | tissue uptake
CSCC[C@H](NC(=O)[C@H](CC(C)C)NC(=O)[C@H](Cc1c[nH]cn1)NC(=O)CNC(=O)[C@@H](NC(=O)[C@H](C)NC(=O)[C@H](Cc1c[nH]c2ccccc12)NC(=O)[C@H](CCC(N)=O)NC(=O)CCOCCOCCOCCOCCNC(=O)CN1CCN(CC(=O)O)CCN(CC(=O)O)CCN(CC(=O)O)CC1)C(C)C)C(N)=O [indium-111 labelled] |  | male Swiss nu/nu mice, PC-3 tumour, kidney | intravenous, 10 pmol, 4 h | 1.5 ± 0.4 %ID/g
